Published values gathered from unrelated publications.
Each line is one published result; not all experiments were run side by side. “And” joins repeats or separate records; there may be more than shown. Numbers after ± are the reported error.

| Compound | assay | system | setting | measurement | result |
| --- | --- | --- | --- | --- | --- |
| C#Cc1c(F)ccc2cc(O)cc(-c3ncc4c(N5CC6CCC(C5)N6C(=O)OC(OC(=O)CCC)C(C)C)nc(OC[C@@]56CCCN5C[C@H](F)C6)nc4c3F)c12 (stereo partly drawn) | chemical stability | simulated intestinal fluid | 1 µM, 30 min | compound remaining | 96.7% |
| CC(=O)N[C@H](C(=O)N[C@@H](CCCC(=O)OC(C)(C)C)C(=O)N[C@@H](CCC1CCCCC1)C(=O)N[C@@H](CC(=O)O)C(=O)COC(=O)c1c(C)cccc1C)C(C)(C)C |  | C57BL/6N mouse, female, whole blood | intraperitoneal, dose not given, 8 h | blood concentration | 244 µM |
| COCCCCNC(=O)CC(Cc1ccc(F)cc1)NC(=O)C(Cc1ccc(Cl)cc1Cl)NC(=O)C(N)Cc1ccccc1C#N (stereo not drawn) |  | CD-1 mouse, liver microsomes | 1 µM, time not given, epoxide hydrolase conditions | remaining compound | 51% |
| O=C(O)CC[C@H](NC(=O)[C@H](CCC(=O)O)NC(=O)[C@H](CCC(=O)O)NC(=O)[C@H](CCC(=O)O)NC(=O)[C@H](CCC(=O)O)NC(=O)CNC(=O)[C@H](CCC(=O)O)NC(=O)CNC(=O)[C@H](CCC(=O)O)NC(=O)[C@@H](Cc1ccccc1)NC(=O)[C@@H](Cc1ccccc1)NC(=O)Cc1ccc2ccccc2c1)C(=O)O | circular dichroism | PBS | 500 µM, pH 7, above CMC | second negative CD peak wavelength | 212 nm |
| CCOP(=O)([O-])CNC(=O)CN1CCN(CC(=O)NCP(=O)([O-])OCC)CCN(CC(=O)NCP(=O)([O-])OCC)CCN(CC(=O)NCP(=O)([O-])OCC)CC1.[177Lu+3] |  | Sprague-Dawley rat, bone | intravenous, dose not given, 2 h | biodistribution | 0.036 ± 0.027 % injected dose/organ |
| C=Cc1c(C)c2cc3nc(c(CC(=O)[O-])c4[n-]c(cc5nc(cc1[n-]2)C(C)=C5CC)c(C)c4C(=O)[O-])C(CCC(=O)[O-])C3C.[Cu+2].[Na+].[Na+].[Na+] (stereo not drawn) |  | Wistar rat, female | oral, 250 mg/kg daily, 28 days | haemoglobin | 13.9 ± 1.21 g/dL |
| CC(C)N1CCCCC1C(=O)NC(Cc1ccc(-c2ccccc2)cc1)B(O)O (stereo not drawn) |  | SCID mouse, P. falciparum model, blood | oral, 25 mg/kg, 6 h | blood concentration | 15 ng/mL |
| COc1ccc([C@@H]2CC(=O)c3c(O)cc(O[C@@H]4O[C@H](CO)[C@@H](O)[C@H](O)[C@H]4O[C@@H]4O[C@@H](C)[C@H](O)[C@@H](O)[C@H]4O)cc3O2)cc1O |  | Sprague-Dawley rat, male, lean, faeces | oral, 100 mg/kg, 24-36 h | faecal excretion | 85.6 ± 84 ng |
| CSCC[C@@H]1NC(=O)[C@H](C(C)C)NC(=O)[C@H](CCCNC(=N)N)NC(=O)[C@@H]2CCCN2C(=O)CNC(=O)[C@@H](NC(=O)CNC(=O)[C@H](CO)NC(=O)CNC(=O)[C@H](CO)NC(=S)Nc2ccc(C[C@H]3CN(CC(=O)O)CCN(CC(=O)O)CCN3CC(=O)O)cc2)CSSC[C@@H](C(N)=O)NC(=O)[C@@H]2CCCN2C(=O)CNC(=O)[C@H](CCC(=O)O)NC(=O)[C@H](CC(=O)O)NC(=O)[C@H](CC(=O)O)NC(=O)CNC(=O)[C@H](CC(C)C)NC(=O)[C@H](Cc2c[nH]cn2)NC(=O)[C@H](CC(C)C)NC(=O)CNC(=O)[C@H](Cc2c[nH]cn2)NC1=O [copper-64 labelled] | dynamic PET | CD rat, myocardial infarction model, fibrotic infarct myocardium | intravenous, 18.5 MBq, 15 to 60 min | half-life | 25 ± 2.5 min |
| C[C@H](O)[C@@H](NC(=O)[C@H]1CCCN1C(=O)[C@@H](CCCCN)NC(=O)[C@@H](CO)NC(=O)[C@@H](Cc1ccc(O)cc1)NC(=O)[C@@H](CC(N)=O)NC(=O)CCOCCOCCOCCNC(=O)CN1CCN(CC(=O)O)CCN(CC(=O)O)CCN(CC(=O)O)CC1)C(=O)N[C@H](CC(=O)O)C(=O)N[C@H](CCCNC(=N)N)C(=O)N[C@H](CCC(N)=O)C(=O)N[C@H](Cc1ccc(O)cc1)C(=O)N[C@H](Cc1c[nH]cn1)C(=O)N[C@H](Cc1ccccc1)C(N)=O [gallium-68 labelled] |  | BALB/c nude mice U-87 MG tumour, kidney | intravenous, 1.85 MBq, 1 h, radiolabelled | tissue uptake | 11.5 ± 0.44 %ID/g |
| CC(C)[C@H](NC(=O)[C@@H](NC(=O)[C@H](CCCNC(=N)N)NC(=O)[C@H](CCCNC(=N)N)NC(=O)[C@H](CCCNC(=N)N)NC(=O)[C@H](CCC(N)=O)NC(=O)[C@H](CCCNC(=N)N)NC(=O)[C@H](CCCNC(=N)N)NC(=O)[C@H](CCCCN)NC(=O)[C@H](CCCCN)NC(=O)[C@H](CCCNC(=N)N)NC(=O)CN)[C@@H](C)O)C(=O)N[C@H](C(=O)N[C@@H](CO)C(=O)N1CCC[C@H]1C(=O)O)[C@@H](C)O |  | ICR mice, female, stomach | intranasal, 10 mg/kg daily, 4 weeks | organ weight | 0.374 ± 0.076 g |
| O=C1NC2(CC2)COc2ncc(F)cc2[C@H]2COCCN2c2ccn3ncc1c3n2 |  | Sprague-Dawley rat, female, serum | oral, 20 mg/kg/day, 4 weeks daily, end of treatment | albumin | 31.8 ± 5.3 g/L |
| COc1cnc2cccc(N3CCc4c(cc(Cn5ccnc5)cc4-c4cn(C)nc4C(F)(F)F)C3=O)c2c1 |  | BALB/c nude mice, MV4-11 xenograft | intraperitoneal, 75 mg/kg, day 14 | body weight | 22.2 g and 23 g and 22.8 g and 25.5 g and 22.7 g |
| CC(C)[C@@H]1NC(=O)CNC(=O)[C@H](CC(N)=O)NC(=O)[C@H](CCCNC(=N)N)NC(=O)[C@H](Cc2ccc(O)cc2)NC(=O)[C@H](C(C)C)NC(=O)[C@@H](NC(=O)[C@@H](NC(=O)[C@H](CC(N)=O)NC(=O)[C@H](Cc2c[nH]c3ccccc23)NC(=O)[C@H](C)NC(=O)[C@H](Cc2ccccc2)NC(=O)CNC(=O)[C@H](CCCCN)NC(=O)[C@H](Cc2ccccc2)NC(=O)[C@H](Cc2ccccc2)NC(=O)[C@H](CCCCN)NC(=O)OCC2c3ccccc3-c3ccccc32)C(C)C)CSSC[C@@H](C(=O)N[C@@H](Cc2c[nH]cn2)C(=O)N[C@@H](CCCNC(=N)N)C(=O)N[C@@H](CCCNC(=N)N)C(=O)N[C@@H](C)C(=O)N[C@@H](CC(N)=O)C(N)=O)NC(=O)[C@H](C(C)C)NC(=O)[C@H](CCCNC(=N)N)NC1=O |  | ICR mice, blood | intraductal mammary, 10 mg/kg, day 5 | monocytes | 3.33 ± 0.05% |
| CC[C@H](C)[C@H](NC(=O)[C@H](CCCCN)NC(=O)CNC(=O)[C@H](CC(C)C)NC(=O)[C@H](Cc1ccccc1)NC(=O)[C@H](CCCCN)NC(=O)[C@H](CO)NC(=O)[C@H](Cc1ccccc1)NC(=O)[C@H](Cc1c[nH]c2ccccc12)NC(=O)[C@H](CCC(N)=O)NC(=O)[C@@H](NC(=O)[C@H](Cc1ccccc1)NC(=O)CCCCCNC(=O)CN1CCN(CC(=O)O)CCN(CC(=O)O)CCN(CC(=O)O)CC1)C(C)C)C(=O)N[C@@H](CCC(=O)O)C(=O)N1CCC[C@H]1C(=O)N[C@@H](CC(=O)O)C(=O)N[C@H](C(=O)N[C@@H](CO)C(=O)N[C@@H](CCC(N)=O)C(=O)N[C@H](C(=O)N[C@@H](CCC(N)=O)C(=O)N[C@@H](CC(=O)O)C(=O)N1CCC[C@H]1C(=O)N[C@@H](CC(N)=O)C(=O)N[C@@H](CC(=O)O)C(=O)N[C@@H](CCC(N)=O)C(=O)N[C@@H](Cc1ccc(O)cc1)C(=O)N[C@@H](CCC(=O)O)C(=O)N1CCC[C@H]1C(=O)N[C@@H](Cc1ccccc1)C(=O)O)C(C)C)C(C)C [copper-64 labelled] |  | BALB/c mice, male, CT26 tumour-bearing, blood | 2 h, anti-PD1 plus anti-CTLA4 treated | tissue uptake | 0.56 ± 0.02 %ID/g |
| CC1COC2=C1C(=O)C(=O)c1c2ccc2c1C(OC(=O)CNC(=O)C(N)CO)CCC2(C)C (mixture of isomers) |  | saline | 24 h, 25 °C | equilibrium solubility | 370 µg/mL |
| CC(C)C[C@@H](NC(=O)[C@@H](CCCNC(=N)N)NC(=O)[C@@H](Cc1c[nH]cn1)NC(=O)[C@@H](Cc1c[nH]c2ccccc12)NC(=O)[C@@H](Cc1c[nH]cn1)NC(=O)[C@@H](Cc1ccccc1)NC(=O)[C@H](NC(=O)[C@@H](Cc1ccc(O)cc1)NC(=O)CNC(=O)CNC(=O)CCOCCOCCOCCNC(=O)CN1CCN(CC(=O)O)CCN(CC(=O)O)CC1)[C@H](C)O)C(=O)N[C@H](CC(N)=O)C(=O)N1CCC[C@@H]1C(=O)O [gallium-68 labelled] |  | human female, from C57BL/6 mouse, red marrow |  | absorbed dose | 0.0103 ± 0.0001 mSv/MBq |
| Cc1ccccc1-c1ccc(-c2nc(-c3ccc(CN(C)CCCC(=O)O)c([18F])c3)no2)cc1C(F)(F)F |  | rat, liver | 30 min | tracer uptake | 2.56 %ID/g |

Some of these lines once more:
| Compound | assay | system | setting | measurement | result |
| --- | --- | --- | --- | --- | --- |
| CC(C)N1CCCCC1C(=O)NC(Cc1ccc(-c2ccccc2)cc1)B(O)O (stereo not drawn) |  | SCID mouse, P. falciparum model, blood | oral, 25 mg/kg, 6 h | blood concentration | 15 ng/mL |
| CC(C)[C@@H]1NC(=O)CNC(=O)[C@H](CC(N)=O)NC(=O)[C@H](CCCNC(=N)N)NC(=O)[C@H](Cc2ccc(O)cc2)NC(=O)[C@H](C(C)C)NC(=O)[C@@H](NC(=O)[C@@H](NC(=O)[C@H](CC(N)=O)NC(=O)[C@H](Cc2c[nH]c3ccccc23)NC(=O)[C@H](C)NC(=O)[C@H](Cc2ccccc2)NC(=O)CNC(=O)[C@H](CCCCN)NC(=O)[C@H](Cc2ccccc2)NC(=O)[C@H](Cc2ccccc2)NC(=O)[C@H](CCCCN)NC(=O)OCC2c3ccccc3-c3ccccc32)C(C)C)CSSC[C@@H](C(=O)N[C@@H](Cc2c[nH]cn2)C(=O)N[C@@H](CCCNC(=N)N)C(=O)N[C@@H](CCCNC(=N)N)C(=O)N[C@@H](C)C(=O)N[C@@H](CC(N)=O)C(N)=O)NC(=O)[C@H](C(C)C)NC(=O)[C@H](CCCNC(=N)N)NC1=O |  | ICR mice, blood | intraductal mammary, 10 mg/kg, day 5 | monocytes | 3.33 ± 0.05% |
